Assay results gathered from unrelated publications.
Numbered parts are unrelated; each lists some results of a single study. Changes are numbered by the printed parent chain.

Block 1
Target: Histone acetyltransferase KAT6A, winged helix 2, GST fusion (KAT6A, Homo sapiens, UniProt Q92794, residues 85-181)
Method: protein binding microarray
Form: double-stranded DNA, one strand shown
Matrix: in vitro
Concentration: not given
Setting: 8-mer, flanks averaged, mean of 2 arrays, mostly near background
Baseline: not given
Reading: higher = stronger binding
Target sequence (chain): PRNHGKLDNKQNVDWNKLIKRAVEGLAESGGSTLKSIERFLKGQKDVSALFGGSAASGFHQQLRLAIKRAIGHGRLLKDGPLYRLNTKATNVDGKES
| Strand | E-score |
| --- | --- |
| CCAGATCA | 0.175 |
| CTAGGGTC | -0.102 |
| CACAGGTC | -0.151 |
| CCGCTAGA | -0.0433 |
| GCTTGCTA | 0.008 |
| TACGTCCA | -0.146 |
| CGAAGCAA | 0.198 |
| GGCCTCCC | 0.108 |
| ACTGCGGG | 0.244 |
| CGAGGACA | -0.127 |
| GGTTCTCA | -0.0941 |
| AAGAATCC | -0.0349 |
| ATCCATTG | -0.121 |
| ACGCGTCA | 0.055 |
| AGACGTTG | -0.0418 |
| CATCGGGA | 0.211 |
| ACAAGACC | 0.0458 |
| CAGGCTGA | 0.0253 |
| TAAAGCAA | 0.062 |
| AGCGACCG | 0.147 |
| AAGCATTA | -0.0678 |
| ATAACTAC | -0.0454 |
| CGCCTCCG | 0.0181 |
| CTTTGCAA | 0.196 |
| AGCCAGCG | 0.0238 |

Block 2
Target: BATF, bZIP domain (human)
Method: DHFR protein complementation
Matrix: yeast
Setting: single substitutions, most at no-binding floor
Baseline: wild-type JUN-FOS pair
Reading: higher = stronger binding
Parent: JUN, bZIP domain (human); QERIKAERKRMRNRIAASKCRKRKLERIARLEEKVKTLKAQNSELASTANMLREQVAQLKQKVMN; partner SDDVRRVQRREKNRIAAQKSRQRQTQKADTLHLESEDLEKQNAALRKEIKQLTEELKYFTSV
| Variant | binding fitness [natural log] |
| --- | --- |
| A46Y | -0.168 |
| L52R | -1.1 |
| E32H | -0.133 |
| E32V | -0.0446 |
| L31W | -0.195 |
| S43P | -1.05 |
| A49N | -0.976 |
| I28R | 0.017 |
| Q58P | -0.512 |
| K36Q | -0.0663 |
| E33P | -0.774 |
| L52M | -0.19 |
| L31A | -0.00876 |
| R53K | -0.0807 |
| E32I | -0.237 |
| K36E | -0.057 |
| S43K | 0.123 |
| E32Q | -0.0916 |
| R30V | 0.209 |
| K36W | -0.229 |

Block 3
Target: human cyclin B1
Effect on: peptide binding
Method: yeast competitive growth sequencing
Form: peptide
Organism: Saccharomyces cerevisiae
Strain: cyclin B1-Cln2 fusion
Concentration: concentration not given
Setting: peptide tiling library
Reading: direction not given
| Sequence | binding enrichment score |
| --- | --- |
| IPDRSTKPVVFSPT | -0.354 |
| PARRRLRLSVDEVSSP | 0.372 |
| KPKPVKPVTFSTGIKM | -0.341 |
| FQDSGYNELKSCSFDN | 0.163 |
| VLPGGVPSPGASLTSM | 0.833 |
| ARKRLELGNLGNPQ | -0.119 |
| SAVPLILPQAPSGPSY | 0.826 |
| SGYLTDENEVGFRG | 0.305 |
| KPITLDTTDFQESFVT | 0.281 |
| QNPCGSKACRRLFGPV | 0.065 |
| VEEEFFALRKRTPSAG | 0.27 |
| AIRKMREDRWAVIAKM | 0.624 |
| DSDSDSEGGAAGGEAD | 1.22 |
| VKRLNFRSEEME | 1.21 |

Block 4
Target: Sal-like protein 4, full length isoform A (SALL4, Homo sapiens, UniProt Q9UJQ4, residues 1-1053)
UniProt Q9UJQ4, sequence (whole entry, looked up): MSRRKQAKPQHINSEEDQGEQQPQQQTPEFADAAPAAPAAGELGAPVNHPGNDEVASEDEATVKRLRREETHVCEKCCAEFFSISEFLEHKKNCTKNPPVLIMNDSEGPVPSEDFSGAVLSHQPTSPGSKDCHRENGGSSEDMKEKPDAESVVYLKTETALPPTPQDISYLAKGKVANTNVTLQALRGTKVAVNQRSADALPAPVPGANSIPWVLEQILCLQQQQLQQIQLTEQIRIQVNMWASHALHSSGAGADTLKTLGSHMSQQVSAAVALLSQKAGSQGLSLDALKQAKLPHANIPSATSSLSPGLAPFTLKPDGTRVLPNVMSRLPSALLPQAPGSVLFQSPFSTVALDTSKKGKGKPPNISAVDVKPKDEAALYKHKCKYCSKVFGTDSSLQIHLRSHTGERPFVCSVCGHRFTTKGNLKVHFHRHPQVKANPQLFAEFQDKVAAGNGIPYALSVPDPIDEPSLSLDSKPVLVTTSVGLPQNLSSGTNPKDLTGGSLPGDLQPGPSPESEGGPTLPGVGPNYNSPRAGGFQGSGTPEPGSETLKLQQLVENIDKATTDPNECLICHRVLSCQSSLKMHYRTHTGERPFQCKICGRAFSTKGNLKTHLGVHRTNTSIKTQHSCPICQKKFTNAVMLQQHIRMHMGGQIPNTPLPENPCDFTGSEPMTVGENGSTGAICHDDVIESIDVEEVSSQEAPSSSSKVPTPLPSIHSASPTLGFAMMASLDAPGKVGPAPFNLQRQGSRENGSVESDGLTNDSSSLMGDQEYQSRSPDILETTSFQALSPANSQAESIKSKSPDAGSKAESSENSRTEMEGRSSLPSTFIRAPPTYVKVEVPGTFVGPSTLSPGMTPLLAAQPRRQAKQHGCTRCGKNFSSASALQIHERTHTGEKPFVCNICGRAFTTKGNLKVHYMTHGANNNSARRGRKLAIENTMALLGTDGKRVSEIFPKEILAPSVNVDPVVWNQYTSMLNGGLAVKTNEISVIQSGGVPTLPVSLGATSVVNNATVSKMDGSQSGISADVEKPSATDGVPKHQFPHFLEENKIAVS
Method: universal PBM
Form: double-stranded DNA, one strand shown
Matrix: in vitro
Concentration: 600 nM
Setting: 8-mer, flanks averaged, mean of replicates
Reading: higher = stronger binding
| Strand | E-score |
| --- | --- |
| CTCTGTAA | 0.084 |
| CGAACTGC | -0.0409 |
| CCAGCCAG | -0.343 |
| ATAACTTC | 0.292 |
| GCCAAAAC | -0.128 |
| CAACCGAC | 0.0262 |
| CCGTTATC | 0.117 |
| TCGCCAAA | -0.00925 |
| CTCCTGAC | -0.158 |
| AAAATACT | 0.292 |
| GCCGCTCC | -0.348 |
| ACCCCATG | -0.0941 |
| GGGTCGAC | -0.365 |
| GAGTTAAA | 0.00404 |
| CACTCTAC | 0.0675 |
| AATGGTAG | 0.208 |
| AGACAGTC | -0.182 |
| AATACGGG | -0.0134 |
| GACGTTGA | -0.0183 |
| ACGTGGGA | -0.159 |
| ACATATCG | 0.114 |

Block 5
Target: Interferon regulatory factor 7, full length, phosphomimetic (IRF7, Homo sapiens, UniProt Q92985, residues 1-503, S471D/S472D/S475D/S476D/S477D/S483D/S484D/S487D)
Method: protein-binding microarray
Form: double-stranded DNA, one strand shown
Matrix: in vitro
Concentration: 2200 nM top
Setting: 60-bp whole probe
Together with: salmon DNA 0.4 mg/ml
Baseline: random background probes
Reading: higher = stronger binding
Shared flanks, not repeated: GCCTAGCAC … GTCTTGATTCGCTTGACGCTGCTG
Target sequence (chain): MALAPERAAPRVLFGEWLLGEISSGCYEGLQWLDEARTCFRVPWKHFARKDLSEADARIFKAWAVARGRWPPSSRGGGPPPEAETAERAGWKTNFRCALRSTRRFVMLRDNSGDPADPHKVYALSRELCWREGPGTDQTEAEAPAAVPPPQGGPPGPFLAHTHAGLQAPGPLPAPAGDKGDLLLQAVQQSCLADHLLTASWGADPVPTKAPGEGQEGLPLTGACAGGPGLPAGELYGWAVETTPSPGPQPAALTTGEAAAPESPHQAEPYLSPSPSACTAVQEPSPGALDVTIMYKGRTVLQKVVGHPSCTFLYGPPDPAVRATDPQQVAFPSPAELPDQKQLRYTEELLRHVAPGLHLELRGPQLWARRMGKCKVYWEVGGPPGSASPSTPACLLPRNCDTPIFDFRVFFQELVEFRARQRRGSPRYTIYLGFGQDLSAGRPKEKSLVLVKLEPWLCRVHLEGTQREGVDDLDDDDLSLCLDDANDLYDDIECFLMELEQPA
| Strand | fitted relative affinity [z-score] |
| --- | --- |
| TTAGGTATCGGGTTTCGGTTTGTGCTA | 8.86 |
| GACGATATCGGGTTTCGAGACGTGCTA | 1.51 |
| TTAGGTCTGGGTCTCGGTTAGTGCTAG | 0.22 |
| CACTCCACCTCTGTGCTCTTGTGCTAG | 1.4 |
| GACGGTTTTGGTATCGGGACGTGCTAG | 1.61 |
| GACGGACTGGCGACTGGGGACGTGCTA | -0.755 |
| GACGAACTGAGTCTCGATACGTGCTAG | 0.115 |
| GACGATCTCAGACTGGAGAGGTGCTAG | -0.266 |
| TTAGGTATCGGTACTGGGTTAGTGCTA | 0.137 |
| GCCGATCTCAGTCTCGAGACGTGCTAG | 0.723 |
| TTAGGTATCCTTTTCCTTTAGTGCTAG | 1.7 |
| TTAGGTTTCCTTCTCCATTAGTGCTAG | 2.37 |
| TCATACTTCACTCTCTGACTGTGCTAG | 1.54 |
| AGTATTACCTCATCTTTCCCTGTGCTA | 2.04 |
| TTAGGTATCGGGACTGGGGTAGTGCTA | -0.211 |
| TTAGATTTCGGGTTTCTATTAGTGCTA | 4.61 |
| GACGTACTGCTTCTCCTGACGTGCTAG | 1.43 |
| GACGGTGTCCTTATCCTGACGTGCTAG | 0.493 |
| GACGGTTTCCTTGCCCTGACGTGCTAG | 1.9 |
| ATAGGACTGCTACTGCTTTAGTGCTAG | 0.105 |
| TCAAGTGTCAATAATGACACTGTGCTA | -0.465 |
| TAAATTTTGATGGAGAGTGCGTGCTAG | -0.68 |

Block 6
Target: Fragile X messenger ribonucleoprotein 1, C-terminal low-complexity region (Fmr1, Mus musculus, UniProt P35922)
Method: RNA Bind-n-Seq
Form: RNA
Matrix: in vitro
Concentration: 200 nM
Setting: whole 134-nt RNA, ends assumed
Together with: 150 mM LiCl
Baseline: input library
Reading: higher = stronger binding
All molecules: 7-deaza-guanosine replaces G
Shared flanks, not repeated: GGGAGUUCUACAGUCCGACGAUC … UGGAAUUCUCGGGUGUCAAGG
| Strand | log2 enrichment |
| --- | --- |
| AAGUCCUGUGCUACACAUCGUAUGUACCGAAUCGGAAAAAAAGGUUUGGUUUUUGGAAAGUAUUAUGUUACGCCGUUCGGAUCUGCACUU | -2.88 |
| CACAGACAACACCCACCCACACAGACACAGAGGGAAGGGGUUGGGAUGGGGACAGGGUGCACAGCAGGGCGGGGUAGGACCCCAGCCCCU | -0.696 |
| UGGCCCUGGUGGCAUGCGGGGAGGAAGAGGUGGCCUCAUGGAUCGUGGUGGUCCCGGCGGAAUGUUCAGAGGUGGCCGUGGUGGAGACAG | -0.252 |
| AAGUCCUGUGCUACACAUCGUAUGUACCGAAUCGGGGUUUGGGGUUUGGUUUGGGGAAAGUAUUAUGUUACGCCGUUCGGAUCUGCACUU | -1.26 |
| AGUCCUGUGCUACACAUCGUAUGUACCGAAUCGGGGCCCCGGGCCCCGGGCCCCGGGAAAGUAUUAUGUUACGCCGUUCGGAUCUGCACU | -3 |
| CUCAAGUCCUGUGCUACACAUCGUAUGUACCGAAUCGGGGCCGGCCGGCCGGGGAAAGUAUUAUGUUACGCCGUUCGGAUCUGCACUUCC | 0.973 |
| CCUGUGCUACACAUCGUAUGUACCGAAUCGGGGUUUUUUUGGGGAAAGGGGAAAAAGGGGAAAGUAUUAUGUUACGCCGUUCGGAUCUGC | -0.354 |
| UAACUUUAGAGGAGGAUCUGAUGGAUAUGGCAGUGGACGUGGAUUUGGGGAUGGCUAUAAUGGGUAUGGAGGAGGACCUGGAGGUGCCAA | -0.0621 |
| CUGUGCUACACAUCGUAUGUACCGAAUCGGGGUUUUUUUGGUUUUUUUGGUUUUUUUGGGGAAAGUAUUAUGUUACGCCGUUCGGAUCUG | 0.404 |
| UGCUUCUGAGUUGCCCAGGAGACCACUGGCAGAUGUCCCGGCGAAGAGAAGAGACACAUUGUUGGAAGAAGCAGCCCAUGACAGCUCCCC | 0.649 |
| AAGUCCUGUGCUACACAUCGUAUGUACCGAAUCGGGGUUUGGGGAGGGGUUUGGGGAAAGUAUUAUGUUACGCCGUUCGGAUCUGCACUU | -0.74 |

Single results of other studies
| Molecule | target | assay | system | conditions | how to read | measurement | result |
| --- | --- | --- | --- | --- | --- | --- | --- |
| PhoQ, residues 284 288 289 292 302 303 AGGCYF | PhoP, residues 12 14 15 18 19 NHTVL (Escherichia coli, UniProt P23836) | Sort-seq, item: YFP reporter | E. coli | PhoQ-PhoP variant library, together with: 10 µM Mg2+ | baseline: high Mg2+ state, higher = stronger signaling | fold induction | 1.96 |

Excerpt of the above (block 4):
| Strand | E-score |
| --- | --- |
| CACTCTAC | 0.0675 |
| ACATATCG | 0.114 |
| ACCCCATG | -0.0941 |
| TCGCCAAA | -0.00925 |
| CTCCTGAC | -0.158 |
| GAGTTAAA | 0.00404 |
| AAAATACT | 0.292 |
| ATAACTTC | 0.292 |
| CAACCGAC | 0.0262 |
| GCCAAAAC | -0.128 |
| GCCGCTCC | -0.348 |
| GGGTCGAC | -0.365 |
